Assay results gathered from unrelated publications.
Each numbered part is a random draw from the data of one study; scales do not carry over between parts.

Set 1
Target: RNA binding protein fox-1 homolog 2, RRM domain, GST-SBP tag (RBFOX2, Homo sapiens, UniProt O43251-10, residues 100-194)
Technique: RNA Bind-n-Seq
Molecule type: RNA
Medium: in vitro
Tested at: 365 nM
Setting: natural RNA segment, single round, ends assumed
Reference: no-protein control
Reading: higher = stronger binding
Shared flanks, not repeated: GGGAGUUCUACAGUCCGACGAUC … UGGAAUUCUCGGGUGCCAA
Target sequence (chain): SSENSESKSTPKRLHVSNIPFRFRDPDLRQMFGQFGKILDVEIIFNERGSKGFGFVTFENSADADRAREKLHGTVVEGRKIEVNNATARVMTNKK
Oligonucleotide	RBNS enrichment (R)
AUCAUAUUCUGUGCUUUUUCAAUCACUAGUGCAGAAUAGGCUGCAUUUGACACAGACUGUUAGGCAAUAUUGAUUUUUUUGUUUUGUUUUUAUUUGGUUUUAUCUGAGAU	2.95
UGGUCUGGCCCCUCUUCAAGCCAUAUGUCUUAGAGGCCCUCAUAGUGCUCUCCCCUAAGUUGGGUGCUAAGAGCUUUUGUCAGUGAGGGGCCUCUGUCAUUGUCUCAAAG	0.399
ACCAAAAGGAAAUCAACUGAGUGGGUGUUUGGAAGAGGAAGGAGCAACUCUCGGGCAGCCUGCCCAAGGGAGGGAGCAAGUUGCAAUUUAGAAGAUGCCAUACGUCGUGU	0.612
ACCCUUUUUGUAAAUGUCAAGGACAUUUGGAUUUACUUUUACAGAAUAUUGAAAAGAUAAGACAAAUUAUAAAUAAGUUCUAAAACAUAAAUUUAAUUCAUCUCUGCAUA	1.09
GCAGAGCUGCCAGGCUCCCAGGAGAGCAUGGGGACUAGGAGGAAGGGUGUGGCAUGGCUCAGUCUGGCCCCCUUGAUUACCGGCCUAGCCCCUGCUCACAUCACAGCUGU	0.307
GUUGGUUUGGGUUUUUUUUUUUCUUUUUCUACUUUUAAAGUAUUUAAAUGCAAUUAUUUUUCUGCCAAUGGUAUAGCCUAUGCCUAUGCUUGAGAAGUGUAGGUCUACUG	0.349
UUGUUUUCAAAAAAACAUUUGUCAGUAAUUUAACAUCACUACAAAAAGAAGAGUUUGUGACUAUUCUCAUCUCUGUUUUGGACGUUUACUAGACUUUGAUUUCCUUAAUA	0.273
UACAGUGAUAUAUAUAGUGUUCUUAAAACGAUGUGUCUUGCUGCAGAAAUACUGAAAAAAUGCUGGUCAGCUUUAUCUUCCUAUGUCCUUUAUUAAAACCGUAUACAUAA	0.68
UCACCAUACAUCUUGGAAUUCUGUAAGUUUGUAUCCUAACUUGCCCAUAUUCUAAAUUUACAUAGUUUAUUUUCAGCCUUGAGUUGGAUGUUUUUUAGAAAUAUGCCCAG	0.408
AAUUUAAACAAAAAUCUGAACUCUCAAAAGUCUAUUUUUCUAAACUGAAAAUGUAAAUUUAUACAUCUAUUCAGGAGUUGGAGUGUUGUGGUUACCUACUGAGUAGGCUG	0.425
GUGGCAACCCCAGACCCAACCCAUGCCCCUGACAGAUCUAGUUCUCUUCUCCUGUGUUCCCUUUGAGUCCAGUGUGGGACACGGUUUAACUGUCCCAGCGACAUUUCUCC	0.657
CCUGUGCUGGGGGUAGGGAGCCAACAGCACCCGUUUGUACAUAAAGGUCAUUCGUAUGUCACAUGUUUUAAACUGGGGUCUCUGUGUGUAUUUGUGUGUGUGUUCUACCU	0.745

Set 2
Target: Ras GTPase-activating protein-binding protein 1, full length (G3BP1, Homo sapiens, UniProt Q13283)
UniProt Q13283, sequence (whole entry, looked up): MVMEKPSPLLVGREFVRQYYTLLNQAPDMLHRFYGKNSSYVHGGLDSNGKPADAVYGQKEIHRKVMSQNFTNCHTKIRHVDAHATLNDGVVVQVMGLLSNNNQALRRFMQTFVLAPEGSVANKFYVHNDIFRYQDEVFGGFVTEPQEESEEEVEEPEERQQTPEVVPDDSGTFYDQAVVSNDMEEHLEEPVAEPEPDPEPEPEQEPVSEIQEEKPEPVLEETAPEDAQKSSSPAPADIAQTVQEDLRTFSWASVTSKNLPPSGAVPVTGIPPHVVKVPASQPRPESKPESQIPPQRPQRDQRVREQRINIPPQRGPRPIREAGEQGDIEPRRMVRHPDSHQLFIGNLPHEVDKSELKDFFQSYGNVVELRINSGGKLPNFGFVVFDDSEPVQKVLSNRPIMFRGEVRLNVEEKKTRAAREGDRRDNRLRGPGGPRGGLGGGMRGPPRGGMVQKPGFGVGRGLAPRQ
Technique: RNA Bind-n-Seq
Molecule type: RNA
Medium: in vitro
Tested at: 200 nM
Setting: whole 134-nt RNA, ends assumed
Together with: 150 mM KCl
Reference: input library
Reading: higher = stronger binding
Shared flanks, not repeated: GGGAGUUCUACAGUCCGACGAUC … UGGAAUUCUCGGGUGUCAAGG
Oligonucleotide	log2 enrichment
CCCAGACAACACGCACCCACACAGACACAGAGGGAAGGGGUUGGGAUGGGGACAGGGUGCACAGCAGGGCGGGGUAGGACCCCAGCCCCU	1.9
GCAGGAAGUAAAAACAAAUAGAAAUGCUUCGGAUAGUGGCAGGGGUGGGGGUUGCUAAGGAAAGGGUGGGAUGGGAGUGGGUAAAGAGUU	0.872
UAACUUUAGAGGAGGAUCUGAUCGAUAUGGCAGUGGACGUGGAUUUGGGGAUGGCUAUAAUGGGUAUGGAGGAGGACCUGGAGGUGGCAA	0.445
ACCAUGCAGGUGGGCAUCUUUGGGAAGUGGGGCAAGGGGGGGAUAGGGAGAAAGGUAACACUUUGGGAACAGGUGGUCCCAGGUCGUUUC	1.22
ACCAUGCAGGUGGGCAUCUUUGGGAAGUGGGGCAAUGGGGGGAUAGGGAGGGGGGUAACACUUUGGGAACAGGUGGUCCCAGGUCGUUUC	1
GUCCUGUGCUACACAUCGUAUGUACCGAAUCGGGGAAAAAGGGAAAAAGGAAAAAGGGGAAAGUAUUAUGUUACGCCGUUCGGAUCUGCA	-0.295
UCCUGUGCUACACAUCGUAUGUACCGAAUCGGCCCCCCGGCCCCCCGGGCCCCCCGGGGAAAGUAUUAUGUUACGCCGUUCGGAUCUGCA	-0.331
UAACUUUAGAGGAGGAUCUGAUGGAUAUGGAAGUGGACGUGGAUUUGGGGAUGGCUAUAAUGGGUAUGGAGGAGGACCUGGAGGUGGCAA	0.388
AAGUCCUGUGCUACACAUCGUAUGUACCGAAUCGGGGCCCCGGCCCCGGGCCCCGGGAAAGUAUUAUGUUACGCCGUUCGGAUCUGCACU	-0.923
UGAAAUGUUUUUUUCUCUGUCUUCUUUCAGGUCUUUGUUGAGUAUGCAAAUGCUGGUGAUUCCAAAGCUGCGCAGAAAUUACUGACUGGA	-1.38
CACAGACAACACGCACCCACACAGACACAGAGGGAAGGGGUUGGGAUGGGGACAGGGUGCACAGCAGGGCGGGGUCGGACCCCAGCCCCU	1.99
UGAGAGGUGGAUUUUGUUUAUUUUUUUAGCUCAUUUCCAGGGGUGGGAAUUUUUUUUUAAUAUGUGUCAUGAAUAAAGUUGUUUUUGAAA	-0.0682
CAAGUCCUGUGCUACACAUCGUAUGUACCGAAUCGGGAAAAAAAGGGUGGGAGGGAAAGUAUUAUGUUACGCCGUUCGGAUCUGCACUUC	0.598
AGUCCUGUGCUACACAUCGUAUGUACCGAAUCGGUUUUUGGGUUUUUGGGUUUUUGGGAAAGUAUUAUGUUACGCCGUUCGGAUCUGCAC	-1

Set 3
Target: RING finger protein unkempt homolog, zinc fingers 1-6, GST-SBP tag (UNK, Homo sapiens, UniProt Q9C0B0, residues 30-357)
UniProt Q9C0B0, sequence (30-357, looked up): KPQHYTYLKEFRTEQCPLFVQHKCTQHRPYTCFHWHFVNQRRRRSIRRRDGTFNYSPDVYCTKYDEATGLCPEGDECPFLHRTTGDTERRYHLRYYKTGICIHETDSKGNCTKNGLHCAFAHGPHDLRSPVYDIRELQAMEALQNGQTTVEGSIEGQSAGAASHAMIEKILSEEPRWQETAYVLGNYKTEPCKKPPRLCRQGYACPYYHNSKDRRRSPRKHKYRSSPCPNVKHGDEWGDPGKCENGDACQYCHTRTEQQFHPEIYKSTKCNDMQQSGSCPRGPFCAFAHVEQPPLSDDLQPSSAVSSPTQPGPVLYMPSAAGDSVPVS
Technique: RNA Bind-n-Seq
Molecule type: RNA
Medium: in vitro
Tested at: not given
Setting: RNA with constant flanks, human and mouse sites, ends assumed
Reference: input RNA pool
Reading: higher = stronger binding
Shared flanks, not repeated: GGGAGUUCUACAGUCCGACGAUC … CAACAGAGGAUUGAGCAUCA
Oligonucleotide	bound/input enrichment
CACCGCAACCUUUCCUUUUUCCCCCAGUGAUUCUGAAAAACCCCUCUUCCCUUCAGCUUGCUUAGAUGUUCCAAAUUUAGUAAGCUUAAGGCGGCCUACAGAAGAAAAAGAAAAAAAAGG	0.435 ratio
AGAAGUUGCAAGCAGUGUUCCAAAAGUUGUAGGCUCUGCUGUUGGUAGUGGGUCCAUCACUAGUAACAUUGUGGCUUCUAGCAGUUUGCCUCCAGCUACUAUUGCUCCUCCAAAACCAGC	0.152 ratio
AUGAAUCCUGGGGGCCAGUUCCAUCCUACUCCACCACCUCUUCAGCACUAUACACUAGAAGACAUUGCAACUUCUCACCUGUAUCGGGAACCAAACAAGAUGCUAGAACACCGAGAAGUU	0.34 ratio
AUCUAUUCCCCUCUUUUUAUUUCUGGGGCCGGUUUUUUCCUUUUUUUUUUAAUCCCUCCUUAGCUUUUUAUGCGCUCAUAAUCAAUUGUACCCAUUCCCUACAUAACGGGAGCAGUGAUC	173 ratio
UCAAGGAAAACAUCAACUGAAUGUGCAUCUAGUACAGAAAAUUCUUUCGUUGUCAGCAGUAGUUCAGUUUCUAAUACCACUGUUGCUGGAACUCCCCCAUACCCUACAAGUCGGAGGCAA	0.225 ratio
GCCUCGCCCGCCUGGCAGCCUAACCCUCCUUCUCUUCUUCUCCUCUCCGGCUUCGCGCGGCCCUGCCUCCCUCUCGCCCGGCGGCAUCCGCUUGCUGCUGCCACCGCCUCCUCAUCUUCU	0.379 ratio
UUUGUGAAUUUCUCUGAGCAGAAGGAAAAGCUGAUAAAGCGGCAAGAGGAAUUGGAUAGAGGCUACAAAUCAAUCAUGGAAUUGAUGAAUGUACUUGAACUUAGAAAAUAUGAAGCUAUU	1.27 ratio
CGUGCUUUUGAAGAUGAUGAUAUCACGCACGUUGAAGGAAGUGUAGAUCCUAUUCGAGAUAUAGAAAUAAUACAUGAAGAGCUUCAGCUUAAAGAUGAGGAAAUGAUUGGGCCCAUUAUA	1.1 ratio
UUUAAUGACUCUCAGCGUCAGGCUACCAAAGAUGCUGGAACUAUUGCUGGUCUCAAUGUACUUAGAAUUAUUAAUGAGCCAACUGCUGCUGCUAUUGCUUACGGCUUAGACAAAAAGGUU	2.8 ratio
CCAGGAAGAAAGUGAAUCCUGAGACCAGACAGAAAGGCCAGGUUCUGGGAGAAGUAGACCUAGUUGGCAUAGUGAGGCUCACAGAAAACAGGAAGCCCUUUGUUCCGGAGAACAGCCCAG	0.581 ratio
AUUUCACAAAGCUCCCGAAUCUGGCUUUGUCCUCACUGUCGGAGGUCAGAGAAGCCUCCAUUAGAGAAAAUUCUGCCUCUGCUGGCCUCCCUACAGCGUAUACGAGUUCGUCUUCCUGAA	0.509 ratio

Set 4
Target: Histone acetyltransferase KAT6A, both winged helices, GST fusion (KAT6A, Homo sapiens, UniProt Q92794, residues 1-181)
Technique: protein binding microarray
Molecule type: double-stranded DNA, one strand shown
Medium: in vitro
Tested at: not given
Setting: 8-mer, flanks averaged, mean of 2 arrays, mostly near background
Reference: not given
Reading: higher = stronger binding
Target sequence (chain): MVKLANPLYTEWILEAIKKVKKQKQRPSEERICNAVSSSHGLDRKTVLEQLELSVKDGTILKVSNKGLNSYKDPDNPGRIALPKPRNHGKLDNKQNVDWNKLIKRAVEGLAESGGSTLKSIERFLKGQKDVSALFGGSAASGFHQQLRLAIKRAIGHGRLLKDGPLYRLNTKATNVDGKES
Oligonucleotide	E-score
TATTTCAA	-0.0646
AGGCTGCC	-0.12
CACCTCTG	-0.258
AGAAGTAT	-0.0766
CCCATCGA	-0.115
AAAGGGGT	-0.271
CGTGTCAC	0.183
ACCCTGGC	-0.0881
AACACTGA	-0.0778
GTTCATTA	-0.0782
CCTGCCAA	-0.217
ACAATACT	-0.0948
GGGGCCGA	0.0511
CACTGGGC	-0.113
GGGTCGGA	0.0781
CGAGTTGC	-0.0163
CTCAAGGA	-0.162
GCTCGTAC	0.0368
CGGTCGTC	0.153
ATTCCGGG	0.0648
CCGTTACG	0.3
GAATTTGA	-0.0316
AGGGCCAG	-0.324
CGACCTTA	0.0599
ATAGCTGG	-0.151

Set 5
Target: Sal-like protein 4, full length isoform A (SALL4, Homo sapiens, UniProt Q9UJQ4, residues 1-1053)
UniProt Q9UJQ4, sequence (whole entry, looked up): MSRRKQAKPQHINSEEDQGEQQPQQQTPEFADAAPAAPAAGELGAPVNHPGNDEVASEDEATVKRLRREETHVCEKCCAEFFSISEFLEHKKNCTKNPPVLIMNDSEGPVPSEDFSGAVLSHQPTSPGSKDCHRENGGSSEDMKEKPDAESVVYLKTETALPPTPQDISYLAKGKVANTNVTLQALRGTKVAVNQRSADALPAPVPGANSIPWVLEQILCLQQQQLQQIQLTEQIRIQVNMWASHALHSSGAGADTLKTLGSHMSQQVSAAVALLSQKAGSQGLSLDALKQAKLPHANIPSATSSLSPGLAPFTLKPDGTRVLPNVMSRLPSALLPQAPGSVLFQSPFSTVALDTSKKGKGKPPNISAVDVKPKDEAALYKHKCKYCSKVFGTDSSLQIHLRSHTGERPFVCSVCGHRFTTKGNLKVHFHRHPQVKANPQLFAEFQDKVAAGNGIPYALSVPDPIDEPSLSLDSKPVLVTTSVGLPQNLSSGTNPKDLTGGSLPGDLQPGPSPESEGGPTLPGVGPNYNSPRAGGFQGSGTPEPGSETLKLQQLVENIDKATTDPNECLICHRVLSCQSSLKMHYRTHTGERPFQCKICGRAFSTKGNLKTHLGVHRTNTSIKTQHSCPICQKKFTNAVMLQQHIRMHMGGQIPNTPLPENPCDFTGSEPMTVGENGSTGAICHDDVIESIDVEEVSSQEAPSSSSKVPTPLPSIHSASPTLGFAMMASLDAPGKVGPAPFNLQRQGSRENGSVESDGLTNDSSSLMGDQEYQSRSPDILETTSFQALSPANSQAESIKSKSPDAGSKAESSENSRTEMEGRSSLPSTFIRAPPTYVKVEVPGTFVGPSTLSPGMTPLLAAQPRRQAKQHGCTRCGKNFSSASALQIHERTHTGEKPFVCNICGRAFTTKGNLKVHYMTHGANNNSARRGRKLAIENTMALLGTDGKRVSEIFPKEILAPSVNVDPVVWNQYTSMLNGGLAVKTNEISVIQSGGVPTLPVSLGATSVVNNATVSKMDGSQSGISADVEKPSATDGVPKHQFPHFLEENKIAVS
Technique: universal PBM
Molecule type: double-stranded DNA, one strand shown
Medium: in vitro
Tested at: 600 nM
Setting: 8-mer, flanks averaged, mean of replicates
Reading: higher = stronger binding
Oligonucleotide	E-score
GAGCGATC	-0.229
AAAATACA	0.331
ACAGAGGT	0.0174
TCGTAGCA	0.152
ATCCTACG	0.00036
AGGTCCAA	-0.0607
AGTCTGGA	0.0138
ACATCAAT	0.264
GCTGTATA	0.195
CTCCGCAG	-0.182
CCGTGGCA	-0.187
AATCGAGA	0.123
ACGTCGAG	-0.13
GACGTGAA	-0.0328
GAGAGTGA	-0.0344
GGTTACTA	-0.0615
CCCTTGTC	-0.116
GACACGCA	-0.0711
CAATACGC	0.0245
CTAACATC	-0.0315
TAAAGGGA	0.0644
GCTTTTAC	0.146
AAATGGTT	0.165

Excerpt of the above (set 2):
Oligonucleotide	log2 enrichment
GCAGGAAGUAAAAACAAAUAGAAAUGCUUCGGAUAGUGGCAGGGGUGGGGGUUGCUAAGGAAAGGGUGGGAUGGGAGUGGGUAAAGAGUU	0.872
CAAGUCCUGUGCUACACAUCGUAUGUACCGAAUCGGGAAAAAAAGGGUGGGAGGGAAAGUAUUAUGUUACGCCGUUCGGAUCUGCACUUC	0.598
AGUCCUGUGCUACACAUCGUAUGUACCGAAUCGGUUUUUGGGUUUUUGGGUUUUUGGGAAAGUAUUAUGUUACGCCGUUCGGAUCUGCAC	-1
UCCUGUGCUACACAUCGUAUGUACCGAAUCGGCCCCCCGGCCCCCCGGGCCCCCCGGGGAAAGUAUUAUGUUACGCCGUUCGGAUCUGCA	-0.331
UGAAAUGUUUUUUUCUCUGUCUUCUUUCAGGUCUUUGUUGAGUAUGCAAAUGCUGGUGAUUCCAAAGCUGCGCAGAAAUUACUGACUGGA	-1.38
